Results collected from several papers.
Protocols differ between the studies behind these lines. Numbers after ± are the reported error.
FFAR3: Free fatty acid receptor 3 (FFAR3, Homo sapiens, UniProt O14843)
Sequence of UniProt O14843 (whole entry, looked up): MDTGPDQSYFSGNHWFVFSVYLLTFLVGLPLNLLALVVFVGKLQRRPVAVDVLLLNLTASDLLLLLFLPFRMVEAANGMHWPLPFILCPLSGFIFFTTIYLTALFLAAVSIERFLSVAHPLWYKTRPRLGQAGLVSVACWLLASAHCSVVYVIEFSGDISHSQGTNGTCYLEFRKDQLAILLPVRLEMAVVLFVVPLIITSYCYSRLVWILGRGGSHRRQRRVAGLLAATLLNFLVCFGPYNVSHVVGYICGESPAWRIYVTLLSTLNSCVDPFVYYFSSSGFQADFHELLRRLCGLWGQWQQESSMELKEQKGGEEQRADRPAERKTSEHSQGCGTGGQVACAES
NR1H2 ligand-binding domain: Oxysterols receptor LXR-beta, ligand-binding domain (NR1H2, Homo sapiens, UniProt P55055)
Sequence of UniProt P55055 (whole entry, looked up): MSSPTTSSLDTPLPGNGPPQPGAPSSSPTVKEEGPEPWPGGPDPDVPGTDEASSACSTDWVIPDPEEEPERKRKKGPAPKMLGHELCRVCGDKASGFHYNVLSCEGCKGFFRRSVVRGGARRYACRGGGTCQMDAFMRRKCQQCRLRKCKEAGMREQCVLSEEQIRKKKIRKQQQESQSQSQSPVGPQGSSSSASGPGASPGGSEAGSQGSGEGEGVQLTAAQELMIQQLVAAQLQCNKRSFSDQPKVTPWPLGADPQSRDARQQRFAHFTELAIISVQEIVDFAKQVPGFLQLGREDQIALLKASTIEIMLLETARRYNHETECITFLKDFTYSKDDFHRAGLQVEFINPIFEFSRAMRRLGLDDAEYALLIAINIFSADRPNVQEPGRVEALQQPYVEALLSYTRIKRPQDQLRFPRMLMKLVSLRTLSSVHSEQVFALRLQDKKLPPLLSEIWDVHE
Thyrotropin-releasing hormone receptor: Thyrotropin-releasing hormone receptor (Mus musculus, UniProt P21761)
Sequence of UniProt P21761 (whole entry, looked up): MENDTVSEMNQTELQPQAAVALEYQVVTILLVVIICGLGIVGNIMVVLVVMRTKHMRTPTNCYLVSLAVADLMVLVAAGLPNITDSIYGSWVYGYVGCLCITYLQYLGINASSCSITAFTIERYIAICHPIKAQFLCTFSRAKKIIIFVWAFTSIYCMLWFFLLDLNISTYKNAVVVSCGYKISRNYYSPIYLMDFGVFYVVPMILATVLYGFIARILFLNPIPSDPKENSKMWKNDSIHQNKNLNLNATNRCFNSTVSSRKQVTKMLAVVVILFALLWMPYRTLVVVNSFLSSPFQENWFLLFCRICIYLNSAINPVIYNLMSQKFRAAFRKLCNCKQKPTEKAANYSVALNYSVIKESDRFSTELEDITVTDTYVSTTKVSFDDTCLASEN
PTH1R: Parathyroid hormone/parathyroid hormone-related peptide receptor (PTH1R, Homo sapiens, UniProt Q03431)
Sequence of UniProt Q03431 (whole entry, looked up): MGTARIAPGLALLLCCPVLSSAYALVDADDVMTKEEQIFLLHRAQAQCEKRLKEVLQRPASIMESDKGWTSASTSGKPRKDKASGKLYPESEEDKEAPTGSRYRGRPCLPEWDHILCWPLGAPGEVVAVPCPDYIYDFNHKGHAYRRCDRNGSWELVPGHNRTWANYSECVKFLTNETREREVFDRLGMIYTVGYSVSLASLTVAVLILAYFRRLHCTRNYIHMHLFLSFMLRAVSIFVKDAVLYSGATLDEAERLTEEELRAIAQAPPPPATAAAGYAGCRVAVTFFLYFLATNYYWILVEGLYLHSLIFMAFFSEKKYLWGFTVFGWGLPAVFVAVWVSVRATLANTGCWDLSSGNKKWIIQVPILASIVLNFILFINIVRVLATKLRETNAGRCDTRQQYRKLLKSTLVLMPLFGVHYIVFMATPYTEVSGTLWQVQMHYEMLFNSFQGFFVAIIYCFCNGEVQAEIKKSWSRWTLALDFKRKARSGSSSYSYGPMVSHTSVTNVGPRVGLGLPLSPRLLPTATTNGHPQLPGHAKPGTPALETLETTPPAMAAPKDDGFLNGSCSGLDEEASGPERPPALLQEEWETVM
Sequence of UniProt P41149 (whole entry, looked up): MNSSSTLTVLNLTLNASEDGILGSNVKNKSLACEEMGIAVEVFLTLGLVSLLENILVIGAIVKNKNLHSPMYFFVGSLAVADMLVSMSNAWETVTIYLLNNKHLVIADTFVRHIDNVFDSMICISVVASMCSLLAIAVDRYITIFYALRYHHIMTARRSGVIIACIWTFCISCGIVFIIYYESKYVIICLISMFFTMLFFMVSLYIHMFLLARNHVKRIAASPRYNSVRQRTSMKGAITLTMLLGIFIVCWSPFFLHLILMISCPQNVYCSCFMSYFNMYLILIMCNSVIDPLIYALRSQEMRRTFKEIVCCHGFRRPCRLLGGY
Sequence of UniProt Q6W5P4 (whole entry, unmodified, looked up): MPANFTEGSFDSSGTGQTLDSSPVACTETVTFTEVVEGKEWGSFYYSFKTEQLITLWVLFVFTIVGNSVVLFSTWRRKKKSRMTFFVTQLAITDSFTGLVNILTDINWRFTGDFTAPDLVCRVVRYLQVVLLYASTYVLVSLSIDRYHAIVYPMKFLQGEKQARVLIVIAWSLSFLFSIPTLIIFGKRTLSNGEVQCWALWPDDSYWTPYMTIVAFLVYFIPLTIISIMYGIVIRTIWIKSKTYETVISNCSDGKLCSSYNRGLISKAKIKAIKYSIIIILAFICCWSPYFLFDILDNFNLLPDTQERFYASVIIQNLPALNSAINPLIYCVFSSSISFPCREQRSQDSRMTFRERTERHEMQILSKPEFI
Sequence of UniProt Q8K424 (whole entry, looked up): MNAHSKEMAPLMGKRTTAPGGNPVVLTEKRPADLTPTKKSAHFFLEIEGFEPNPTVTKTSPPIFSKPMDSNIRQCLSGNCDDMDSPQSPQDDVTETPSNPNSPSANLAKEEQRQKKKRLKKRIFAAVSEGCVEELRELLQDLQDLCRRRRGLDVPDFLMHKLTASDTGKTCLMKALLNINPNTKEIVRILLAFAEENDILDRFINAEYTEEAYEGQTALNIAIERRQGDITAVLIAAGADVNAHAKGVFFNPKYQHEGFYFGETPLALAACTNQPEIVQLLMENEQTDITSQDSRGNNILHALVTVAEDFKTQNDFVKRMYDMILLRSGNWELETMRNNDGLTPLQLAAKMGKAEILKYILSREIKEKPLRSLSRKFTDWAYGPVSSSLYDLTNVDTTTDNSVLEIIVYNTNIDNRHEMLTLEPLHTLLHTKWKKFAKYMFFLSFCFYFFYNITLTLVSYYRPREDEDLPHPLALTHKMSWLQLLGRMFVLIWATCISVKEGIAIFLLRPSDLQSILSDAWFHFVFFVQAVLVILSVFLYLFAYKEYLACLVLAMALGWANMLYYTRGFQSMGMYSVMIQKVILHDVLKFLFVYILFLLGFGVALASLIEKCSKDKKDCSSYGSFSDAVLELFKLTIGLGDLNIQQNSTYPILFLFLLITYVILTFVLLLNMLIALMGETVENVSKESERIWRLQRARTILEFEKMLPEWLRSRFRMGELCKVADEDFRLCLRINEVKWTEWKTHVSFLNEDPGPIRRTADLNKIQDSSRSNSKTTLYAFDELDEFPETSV
Sequence of UniProt P30969 (whole entry, looked up): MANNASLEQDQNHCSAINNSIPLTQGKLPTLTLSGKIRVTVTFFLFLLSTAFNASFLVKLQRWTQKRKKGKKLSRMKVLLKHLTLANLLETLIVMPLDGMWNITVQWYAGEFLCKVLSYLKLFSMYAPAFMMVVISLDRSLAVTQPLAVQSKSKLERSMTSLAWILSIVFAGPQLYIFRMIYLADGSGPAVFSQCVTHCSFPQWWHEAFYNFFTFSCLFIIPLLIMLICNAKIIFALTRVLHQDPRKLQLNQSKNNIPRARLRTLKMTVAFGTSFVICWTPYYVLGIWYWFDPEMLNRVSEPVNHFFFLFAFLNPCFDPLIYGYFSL
Sequence of UniProt P41586 (whole entry, looked up): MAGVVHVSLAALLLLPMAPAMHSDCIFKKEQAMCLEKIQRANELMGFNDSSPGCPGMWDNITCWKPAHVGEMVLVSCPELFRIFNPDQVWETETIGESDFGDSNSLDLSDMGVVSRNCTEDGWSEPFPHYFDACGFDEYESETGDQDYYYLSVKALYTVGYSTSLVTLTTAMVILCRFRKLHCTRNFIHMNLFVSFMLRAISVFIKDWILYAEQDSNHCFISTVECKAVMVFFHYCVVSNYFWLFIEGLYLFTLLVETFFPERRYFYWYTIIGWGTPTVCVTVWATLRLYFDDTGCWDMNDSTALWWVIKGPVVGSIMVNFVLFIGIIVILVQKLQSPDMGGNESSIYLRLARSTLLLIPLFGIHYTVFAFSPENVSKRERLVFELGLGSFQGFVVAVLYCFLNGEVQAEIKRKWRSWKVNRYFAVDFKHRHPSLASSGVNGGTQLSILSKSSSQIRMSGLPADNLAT

SMILES	target	assay	system	conditions	EC50 [µM]
N=C(N)NCCC[C@H](NC(=O)[C@H](Cc1ccccc1)NC(=O)[C@@H](N)CO)C(=O)N[C@@H](CC(N)=O)C(N)=O	NPSR1 (Homo sapiens, UniProt Q6W5P4, N107I)	cAMP, agonist, TR-FRET	–	–	0.129
C/C=C/CC(=O)O	FFAR3	agonist	–	–	83.2
CC[C@H](C)[C@H](NC(=O)CNC(=O)C1CCN(C(=O)[C@H](CO)NC(=O)[C@@H](N)Cc2c[nH]cn2)CC1)C(=O)N[C@@H](Cc1ccccc1)C(=O)N[C@H](C(=O)N[C@@H](CC(=O)O)C(=O)N[C@@H](CO)C(=O)N[C@@H](Cc1ccc(O)cc1)C(=O)N[C@@H](CO)C(=O)N[C@@H](CCCNC(=N)N)C(=O)N[C@@H](Cc1ccc(O)cc1)C(=O)N[C@@H](CCCNC(=N)N)C(=O)N[C@@H](CCCCN)C(=O)NC(C)(C)C(=O)N[C@@H](C)C(=O)N[C@@H](C)C(=O)N[C@H](C(=O)N[C@@H](CCCCN)C(=O)N[C@@H](CCCCN)C(=O)N[C@@H](Cc1ccc(O)cc1)C(=O)N[C@@H](CC(C)C)C(=O)N[C@@H](C)C(=O)N[C@@H](C)C(=O)N[C@H](C(=O)N[C@@H](CC(C)C)C(=O)NC(C)(C)C(=O)N[C@@H](CCCCN)C(=O)N[C@@H](CCCNC(=N)N)C(=O)N[C@@H](Cc1ccc(O)cc1)C(=O)N[C@@H](CCCCN)C(=O)N[C@@H](CCC(N)=O)C(=O)N[C@@H](CCCCN)C(=O)N[C@H](C(=O)N[C@@H](CCCCN)C(=O)N[C@@H](CC(N)=O)C(=O)N[C@H](CCCCN)C(N)=O)C(C)C)C(C)C)C(C)C)[C@@H](C)O	ADCYAP1R1 (Homo sapiens, UniProt P41586)	cAMP, agonist, radiometric	–	–	> 1
COc1ccccc1C1=Nn2c(nnc2-c2ccccc2OC)SC1	CXCR4 (Homo sapiens, UniProt P61073)	β-arrestin recruitment, agonist	–	–	> 80
COc1cccc(S(=O)(=O)N(C)c2ccc(C(O)(C(F)(F)F)C(F)(F)F)cc2)c1	NR1H2 ligand-binding domain	agonist	–	concentration not given	1.25 ± 0.01
Cc1cnc(C(=O)N[C@@H](Cc2cn(C)cn2)C(=O)N2CCC[C@H]2C(N)=O)cn1	Thyrotropin-releasing hormone receptor	calcium signal, agonist, fluorescence	–	–	0.27
COCCOc1ccc2cc1S(=O)(=O)NCCCNc1nc(ncc1-c1ccc(F)c(OC)c1)N2	EPHA4 (Homo sapiens, UniProt P54764)	target engagement in cells, BRET	–	–	0.06
O=C(c1cc2c(s1)CCCCC2)N1CCC(n2c(=O)[nH]c3ccccc32)CC1	Trpc6 (Mus musculus, UniProt Q61143, K697R)	channel activation, agonist, whole-cell patch clamp	–	–	1.19 ± 0.14
CC(C)n1cnc(C[C@H](NC(=O)C2CCCCN2)C(=O)N2CCC[C@H]2C(N)=O)c1 (some centres unmarked)	Thyrotropin-releasing hormone receptor	calcium signal, agonist, fluorescence	–	–	0.75
CC(C)C[C@H](NC(=O)[C@@H](Cc1c[nH]c2ccccc12)NC(=O)[C@H](Cc1c[nH]cn1)NC(=O)[C@H](CO)NC(=O)[C@H](Cc1c[nH]c2ccccc12)NC(=O)[C@H](Cc1c[nH]cn1)NC(=O)[C@@H]1CCC(=O)N1)C(=O)N[C@@H](CCCNC(=N)N)C(=O)N1CCC[C@H]1C(=O)NCC(N)=O	Gonadotropin-releasing hormone receptor (Rattus norvegicus, UniProt P30969)	inositol phosphate accumulation, agonist	HEK293 expressing Gonadotropin-releasing hormone receptor	60 min, 37 °C, together with: 10 mM LiCl	0.0006 ± 0.0002
C=CC(=O)O	FFAR3	agonist	–	–	912
CN(C(=O)c1cccc(Cl)c1Cl)c1ccc(C(O)(C(F)(F)F)C(F)(F)F)cc1	NR1H2 ligand-binding domain	agonist	–	concentration not given	2.37 ± 0.02
CC(C)=CCCC(C)CC=O (centres unmarked)	Trpv3 (Mus musculus, UniProt Q8K424)	ion current, agonist, patch clamp	mouse	–	5290 ± 170
C[C@H](NC(=O)[C@H](CC(N)=O)NC(=O)[C@H](Cc1c[nH]c2ccccc12)NC(=O)[C@H](CCCNC(=N)N)NC(=O)[C@@H](Cc1ccccc1)NC(=O)[C@H](Cc1c[nH]cn1)NC(=O)[C@H](CCCN=[N+]=[N-])NC(=O)[C@@H](N)Cc1ccc(O)cc1)C(=O)N[C@@H](Cc1ccccc1)C(=O)N[C@@H](CCCN=[N+]=[N-])C(=O)N[C@@H](Cc1ccc(O)cc1)C(N)=O	Melanocortin receptor 5 (Mus musculus, UniProt P41149)	agonist	–	–	0.036 ± 0.007
CCC(=O)O	FFAR3	agonist	–	–	107
CSCC[C@H](NC(=O)[C@H](CO)NC(=O)[C@H](CC(N)=O)NC(=O)[C@H](CC(C)C)NC(=O)[C@H](Cc1c[nH]cn1)NC(=O)[C@H](CCCCN)NC(=O)CNC(=O)[C@H](CCCCN)NC(=O)[C@H](CC(=O)O)NC(=O)[C@H](Cc1c[nH]cn1)NC(=O)[C@H](CC(C)C)NC(=O)[C@H](CC(C)C)NC(=O)[C@H](CCC(N)=O)NC(=O)[C@H](Cc1c[nH]cn1)NC(=O)[C@H](CCC(=O)O)NC(=O)[C@H](CO)NC(=O)[C@@H](NC(=O)[C@H](C)N)C(C)C)C(=O)N[C@@H](CCC(=O)O)C(=O)N[C@@H](CCCNC(=N)N)C(=O)N[C@H](C(=O)N[C@@H](CCC(=O)O)C(=O)N[C@@H](Cc1c[nH]c2ccccc12)C(=O)N[C@@H](CC(C)C)C(=O)N[C@@H](CCCNC(=N)N)C(=O)N[C@@H](CCCCN)C(=O)N[C@@H](CCCCN)C(=O)N[C@@H](CC(C)C)C(=O)N[C@@H](CCC(N)=O)C(=O)N[C@@H](CC(=O)O)C(=O)N[C@H](C(=O)N[C@@H](Cc1c[nH]cn1)C(=O)N[C@@H](CC(N)=O)C(=O)N[C@@H](Cc1ccccc1)C(=O)N[C@@H](CCCCNC(=O)c1ccc2c(c1)C1(OC2=O)c2ccc(N(C)C)cc2Oc2cc(N(C)C)ccc21)C(N)=O)C(C)C)C(C)C	PTH1R	cAMP formation, agonist, GloSensor	HEK293 GP2.3	15 min	0.00015 ± 2e-05
CCCC[C@H](NC(=O)[C@H](CO)NC(=O)[C@H](CC(N)=O)NC(=O)[C@H](CC(C)C)NC(=O)[C@H](Cc1c[nH]cn1)NC(=O)[C@H](CCCCN)NC(=O)CNC(=O)[C@H](CC(C)C)NC(=O)[C@H](CC(N)=O)NC(=O)[C@H](Cc1c[nH]cn1)NC(=O)[C@H](CCCC)NC(=O)[C@H](CC(C)C)NC(=O)[C@H](CCC(N)=O)NC(=O)[C@@H](NC(=O)[C@H](CCC(=O)O)NC(=O)[C@H](CO)NC(=O)[C@@H](NC(=O)[C@@H](N)CO)C(C)C)[C@@H](C)CC)C(=O)N[C@@H](CCC(=O)O)C(=O)N[C@@H](CCCNC(=N)N)C(=O)N[C@H](C(=O)N[C@@H](CCC(=O)O)C(=O)N[C@@H](Cc1c[nH]c2ccccc12)C(=O)N[C@@H](CC(C)C)C(=O)N[C@@H](CCCNC(=N)N)C(=O)N[C@@H](CCCCN)C(=O)N[C@@H](CCCCN)C(=O)N[C@@H](CC(C)C)C(=O)N[C@@H](CCC(N)=O)C(=O)N[C@@H](CC(=O)O)C(=O)N[C@H](C(=O)N[C@@H](Cc1c[nH]cn1)C(=O)N[C@@H](CC(N)=O)C(=O)N[C@@H](Cc1ccccc1)C(=O)N[C@H](C(=O)N[C@@H](C)C(=O)N[C@@H](CC(C)C)C(=O)O)C(C)C)C(C)C)C(C)C	PTH1R	reporter gene, agonist, luciferase	–	–	0.000676

Excerpt of the above:
SMILES	target	assay	system	conditions	EC50 [µM]
C=CC(=O)O	FFAR3	agonist	–	–	912
CN(C(=O)c1cccc(Cl)c1Cl)c1ccc(C(O)(C(F)(F)F)C(F)(F)F)cc1	NR1H2 ligand-binding domain	agonist	–	concentration not given	2.37 ± 0.02
